Experimental data of several laboratories.
Numbered parts are unrelated; each lists some results of a single study. “And” joins repeats or separate records; there may be more than shown.
UniProt P48729, sequence (whole entry, looked up): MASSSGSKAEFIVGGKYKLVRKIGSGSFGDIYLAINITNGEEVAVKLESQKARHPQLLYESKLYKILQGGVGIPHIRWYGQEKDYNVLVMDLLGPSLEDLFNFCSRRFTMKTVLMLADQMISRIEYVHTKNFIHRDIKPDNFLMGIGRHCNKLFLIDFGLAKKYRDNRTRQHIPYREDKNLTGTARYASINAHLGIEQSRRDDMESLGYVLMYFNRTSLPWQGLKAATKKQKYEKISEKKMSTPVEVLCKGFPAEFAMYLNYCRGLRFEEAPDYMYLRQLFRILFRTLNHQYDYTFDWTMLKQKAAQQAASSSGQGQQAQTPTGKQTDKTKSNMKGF
UniProt P51957, sequence (whole entry, looked up): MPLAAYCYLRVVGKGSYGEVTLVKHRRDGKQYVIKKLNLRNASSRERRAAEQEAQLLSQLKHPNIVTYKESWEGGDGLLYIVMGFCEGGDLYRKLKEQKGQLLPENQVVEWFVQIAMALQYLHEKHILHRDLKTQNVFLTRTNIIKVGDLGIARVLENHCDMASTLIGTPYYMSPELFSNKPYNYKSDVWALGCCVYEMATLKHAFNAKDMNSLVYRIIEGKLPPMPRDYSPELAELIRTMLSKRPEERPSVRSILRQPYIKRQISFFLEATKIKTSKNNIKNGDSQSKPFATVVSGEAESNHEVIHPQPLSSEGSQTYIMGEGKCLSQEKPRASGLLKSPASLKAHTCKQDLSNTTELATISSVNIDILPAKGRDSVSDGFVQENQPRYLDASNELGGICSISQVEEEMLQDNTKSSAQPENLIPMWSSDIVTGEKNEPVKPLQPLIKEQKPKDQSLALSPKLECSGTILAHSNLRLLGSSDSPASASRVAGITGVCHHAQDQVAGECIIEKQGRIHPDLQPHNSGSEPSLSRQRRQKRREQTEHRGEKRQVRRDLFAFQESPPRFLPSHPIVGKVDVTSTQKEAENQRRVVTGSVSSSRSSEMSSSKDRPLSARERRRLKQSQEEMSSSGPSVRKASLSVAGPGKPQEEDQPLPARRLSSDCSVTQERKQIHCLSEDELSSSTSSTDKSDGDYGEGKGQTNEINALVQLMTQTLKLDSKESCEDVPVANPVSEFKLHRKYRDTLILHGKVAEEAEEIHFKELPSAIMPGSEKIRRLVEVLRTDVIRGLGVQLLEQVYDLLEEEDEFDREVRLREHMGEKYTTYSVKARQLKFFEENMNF
UniProt Q02779, sequence (whole entry, looked up): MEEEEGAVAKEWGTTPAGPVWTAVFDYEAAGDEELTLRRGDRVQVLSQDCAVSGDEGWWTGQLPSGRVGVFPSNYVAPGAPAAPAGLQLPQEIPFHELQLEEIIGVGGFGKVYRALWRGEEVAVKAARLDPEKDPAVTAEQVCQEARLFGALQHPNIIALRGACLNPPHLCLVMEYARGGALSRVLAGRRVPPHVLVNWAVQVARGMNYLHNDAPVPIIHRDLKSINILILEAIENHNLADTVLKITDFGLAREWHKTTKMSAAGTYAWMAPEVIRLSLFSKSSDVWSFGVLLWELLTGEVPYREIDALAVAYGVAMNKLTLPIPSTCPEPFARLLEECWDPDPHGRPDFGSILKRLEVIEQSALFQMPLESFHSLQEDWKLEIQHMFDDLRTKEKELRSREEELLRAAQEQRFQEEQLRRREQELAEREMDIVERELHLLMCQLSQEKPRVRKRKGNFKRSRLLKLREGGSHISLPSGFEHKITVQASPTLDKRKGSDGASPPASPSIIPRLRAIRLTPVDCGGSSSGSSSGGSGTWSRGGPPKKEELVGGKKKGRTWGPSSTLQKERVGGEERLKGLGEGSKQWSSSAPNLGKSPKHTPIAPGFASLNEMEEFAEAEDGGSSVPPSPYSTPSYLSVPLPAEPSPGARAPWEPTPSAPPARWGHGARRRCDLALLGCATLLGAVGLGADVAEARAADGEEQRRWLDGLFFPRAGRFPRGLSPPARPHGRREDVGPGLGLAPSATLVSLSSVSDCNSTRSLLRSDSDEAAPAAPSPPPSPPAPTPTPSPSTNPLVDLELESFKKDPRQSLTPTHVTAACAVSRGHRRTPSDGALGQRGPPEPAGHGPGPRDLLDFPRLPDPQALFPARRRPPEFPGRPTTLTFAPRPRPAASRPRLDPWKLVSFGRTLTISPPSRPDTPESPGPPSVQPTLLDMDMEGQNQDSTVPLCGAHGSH
UniProt Q15208, sequence (whole entry, looked up): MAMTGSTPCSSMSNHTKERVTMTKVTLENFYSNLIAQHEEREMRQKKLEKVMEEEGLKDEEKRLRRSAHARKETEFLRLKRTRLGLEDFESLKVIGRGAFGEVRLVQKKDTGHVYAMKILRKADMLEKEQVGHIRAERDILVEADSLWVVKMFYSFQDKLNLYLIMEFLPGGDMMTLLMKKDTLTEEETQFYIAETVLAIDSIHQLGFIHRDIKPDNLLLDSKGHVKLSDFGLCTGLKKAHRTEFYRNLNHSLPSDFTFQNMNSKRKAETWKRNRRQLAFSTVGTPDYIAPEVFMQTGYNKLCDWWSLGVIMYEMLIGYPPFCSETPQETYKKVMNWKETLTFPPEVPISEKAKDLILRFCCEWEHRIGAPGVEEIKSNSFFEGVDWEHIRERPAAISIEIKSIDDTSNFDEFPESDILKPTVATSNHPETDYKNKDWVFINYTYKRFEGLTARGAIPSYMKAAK
UniProt P68400, sequence (whole entry, looked up): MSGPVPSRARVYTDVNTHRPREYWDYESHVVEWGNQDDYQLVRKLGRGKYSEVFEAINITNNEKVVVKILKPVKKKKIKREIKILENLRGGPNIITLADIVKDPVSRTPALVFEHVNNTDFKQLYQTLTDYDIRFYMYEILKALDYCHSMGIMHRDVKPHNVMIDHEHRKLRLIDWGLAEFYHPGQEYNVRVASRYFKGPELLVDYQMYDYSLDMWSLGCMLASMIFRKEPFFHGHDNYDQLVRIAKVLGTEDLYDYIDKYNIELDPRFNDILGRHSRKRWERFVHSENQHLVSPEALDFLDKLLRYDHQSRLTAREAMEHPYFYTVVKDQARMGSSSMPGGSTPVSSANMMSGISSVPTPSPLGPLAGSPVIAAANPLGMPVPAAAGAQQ
UniProt P54756, sequence (whole entry, looked up): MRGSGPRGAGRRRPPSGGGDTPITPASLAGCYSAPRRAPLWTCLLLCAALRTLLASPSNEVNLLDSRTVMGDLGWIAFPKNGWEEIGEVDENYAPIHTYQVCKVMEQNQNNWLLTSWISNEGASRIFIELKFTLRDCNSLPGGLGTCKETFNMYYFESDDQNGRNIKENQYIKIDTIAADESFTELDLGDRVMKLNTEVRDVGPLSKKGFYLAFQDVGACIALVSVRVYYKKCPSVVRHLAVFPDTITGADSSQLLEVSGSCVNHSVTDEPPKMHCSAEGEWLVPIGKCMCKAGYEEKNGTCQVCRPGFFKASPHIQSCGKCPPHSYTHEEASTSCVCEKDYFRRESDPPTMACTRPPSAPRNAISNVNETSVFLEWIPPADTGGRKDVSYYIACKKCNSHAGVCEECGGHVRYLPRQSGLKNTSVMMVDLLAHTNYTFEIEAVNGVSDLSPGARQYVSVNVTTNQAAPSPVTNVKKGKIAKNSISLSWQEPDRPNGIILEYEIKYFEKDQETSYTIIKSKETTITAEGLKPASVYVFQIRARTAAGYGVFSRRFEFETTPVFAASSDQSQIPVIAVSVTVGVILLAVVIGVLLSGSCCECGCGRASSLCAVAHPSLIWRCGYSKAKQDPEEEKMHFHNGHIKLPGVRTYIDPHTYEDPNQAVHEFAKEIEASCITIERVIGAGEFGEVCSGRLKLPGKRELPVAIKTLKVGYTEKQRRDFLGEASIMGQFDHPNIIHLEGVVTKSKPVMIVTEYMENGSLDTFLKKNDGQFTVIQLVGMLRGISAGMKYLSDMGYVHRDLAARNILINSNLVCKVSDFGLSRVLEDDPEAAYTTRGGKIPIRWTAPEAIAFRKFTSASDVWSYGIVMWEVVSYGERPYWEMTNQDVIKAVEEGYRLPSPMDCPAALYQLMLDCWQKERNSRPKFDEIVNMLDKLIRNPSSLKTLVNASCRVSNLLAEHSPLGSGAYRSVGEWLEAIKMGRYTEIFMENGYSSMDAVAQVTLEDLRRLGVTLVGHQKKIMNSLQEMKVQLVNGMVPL
UniProt P52564, sequence (whole entry, looked up): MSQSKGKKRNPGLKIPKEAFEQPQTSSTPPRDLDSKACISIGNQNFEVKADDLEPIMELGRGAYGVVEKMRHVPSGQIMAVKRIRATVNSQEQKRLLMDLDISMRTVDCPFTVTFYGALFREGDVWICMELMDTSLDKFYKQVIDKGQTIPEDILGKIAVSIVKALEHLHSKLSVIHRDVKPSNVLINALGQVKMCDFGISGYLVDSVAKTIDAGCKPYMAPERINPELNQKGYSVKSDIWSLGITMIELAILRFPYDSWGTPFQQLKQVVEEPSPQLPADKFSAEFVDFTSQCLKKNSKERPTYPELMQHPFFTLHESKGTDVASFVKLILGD

Block 1
Target: Bromodomain-containing protein 4, BD1 (BRD4, Homo sapiens, UniProt O60885)
Effect on: acetyl-histone H4 peptide binding
Method: AlphaScreen displacement
Concentration: 50 µM
SMILES | inhibition [%]
Cl.NCCNS(=O)(=O)c1cccc2c(Cl)cccc12 | 16.6
c1coc(-c2nnc(CSc3nnc(NC4CC4)s3)o2)c1 | 11.7
COc1cc(O)c2c(c1)oc(=O)c1c3cc(O)c(O)cc3oc21 | 23.9
O=C(NCc1ccc(NC(=O)C2CC2)cc1)c1n[nH]c2ccccc12 | 5.55
CC(C)CCN1c2nc(Nc3cc(F)c(O)c(F)c3)ncc2N(C)C(=O)C1C (stereo not shown) | 99.3
COc1ccc(-c2nnc3ccc(SCC(=O)Nc4cc(C)on4)nn23)cc1OC | 12.7
O=c1[nH]cnc2scc(-c3ccc(F)cc3)c12 | -1.85
Nc1ncc(-c2cccnc2)nc1-c1ccc(O)cc1 | 15.1

Block 2
Organism: Sarcocystis neurona
Effect on: parasite growth
Concentration: 10 µM
Time: 96 h
Setting: first screen
Baseline: untreated
SMILES | log2 fold change
CNC(=C[N+](=O)[O-])NCCSCc1ccc(CN(C)C)o1 | 0.31
CC(=O)Nc1nnc(S(N)(=O)=O)s1 | -0.17
CC(=O)O[C@]1(C(C)=O)CC[C@H]2[C@@H]3C=C(C)C4=CC(=O)CC[C@]4(C)[C@H]3CC[C@@]21C | -0.33
Clc1ccc(COC(Cn2ccnc2)c2ccc(Cl)cc2Cl)c(Cl)c1 (stereo not shown) | -1.1
Cc1ncc([N+](=O)[O-])n1CC(O)CCl (stereo not shown) | 0.0257
CCOC(=O)O[C@]1(C(=O)OCCl)CC[C@H]2[C@@H]3CCC4=CC(=O)C=C[C@]4(C)[C@H]3[C@@H](O)C[C@@]21C | -0.0738
NC12CC3CC(CC(C3)C1)C2 | 0.2
COC(=O)C1=C(C)NC(C)=C(C(=O)OCCN(C)Cc2ccccc2)C1c1cccc([N+](=O)[O-])c1 (stereo not shown) | 0.37

Block 3
SMILES: CN(C)S(=O)(=O)c1ccc2c(c1)/C(=C/c1cc3c([nH]1)CCCC3)C(=O)N2
Effect on: enzyme activity
Mode: inhibitor
Concentration: 0.5 µM
Baseline: control
target | remaining activity [%]
Casein kinase I isoform alpha (CSNK1A1, Homo sapiens, UniProt P48729) | 91.7
Serine/threonine-protein kinase WNK2 (WNK2, Homo sapiens, UniProt Q9Y3S1) | 101
Ephrin type-A receptor 5 (EPHA5, Homo sapiens, UniProt P54756) | 85.1
Dual specificity mitogen-activated protein kinase kinase 6 (MAP2K6, Homo sapiens, UniProt P52564) | 94.6
Serine/threonine-protein kinase 38 (STK38, Homo sapiens, UniProt Q15208) | 94.6
Mitogen-activated protein kinase kinase kinase 10 (MAP3K10, Homo sapiens, UniProt Q02779) | 99.1
Casein kinase II subunit alpha (CSNK2A1, Homo sapiens, UniProt P68400) | 105
Serine/threonine-protein kinase Nek4 (NEK4, Homo sapiens, UniProt P51957) | 99.9

Further values, each from its own experiment
SMILES | cell line | assay | conditions | endpoint | value
CC[C@H](C)c1nc2cc(Nc3ccnc4ccc(S(=O)(=O)C(C)C)cc34)ccc2s1.Cl | HT-29 | necroptosis protection, CCK-8 | 2.5 µM, added: TNF-α SMAC mimetic zVAD | viability | 28% and 78.7% and 71.2% and 38.9%

Excerpt of the above (block 3):
target | remaining activity [%]
Serine/threonine-protein kinase 38 (STK38, Homo sapiens, UniProt Q15208) | 94.6
Mitogen-activated protein kinase kinase kinase 10 (MAP3K10, Homo sapiens, UniProt Q02779) | 99.1
Casein kinase II subunit alpha (CSNK2A1, Homo sapiens, UniProt P68400) | 105
Serine/threonine-protein kinase Nek4 (NEK4, Homo sapiens, UniProt P51957) | 99.9
